Measured values collected from several papers.
Numbered parts are unrelated; each lists some results of a single study. Positions count from the first letter of the parent shown.

Block 1
Substance: PhoQ, residues 284 288 289 292 302 303 AAQSYM
Technique: Sort-seq
Measured: YFP reporter
Medium: E. coli
Notes: PhoQ-PhoP variant library
With: 10 µM Mg2+
Relative to: high Mg2+ state
Reading: higher = stronger signaling
| target | fold induction |
| --- | --- |
| PhoP, residues 12 14 15 18 19 LHTVL (Escherichia coli, UniProt P23836) | 8.32 |
| PhoP, residues 12 14 15 18 19 TQAML (Escherichia coli, UniProt P23836) | 24.8 |
| PhoP, residues 12 14 15 18 19 NQCAL (Escherichia coli, UniProt P23836) | 5.04 |

Block 2
Target: Interferon regulatory factor 5, full length, phosphomimetic (IRF5, Homo sapiens, UniProt Q13568-2, residues 1-514, K96S/S451D/S453D/S456D/S462D)
Technique: protein-binding microarray
Molecule type: double-stranded DNA, one strand shown
Medium: in vitro
Concentration: 250 nM
Notes: 60-bp whole probe
With: salmon DNA 0.4 mg/ml
Relative to: random background probes
Reading: higher = stronger binding
Constant ends, left off below: GCCTAGCAC … GTCTTGATTCGCTTGACGCTGCTG
| Strand | log fluorescence [z-score] |
| --- | --- |
| TCAGGTTAAAATTTTGCACTGTGCTAG | 0.107 |
| TTAGAACTGAGTTTCGATTTGTGCTAG | 9.31 |
| TGAACTTGGAATTTCCCTCTGTGCTAG | 0.0365 |
| GACGGTCTGGACTATCGGGACGTGCTA | 0.713 |
| CATTTTCTTTAACTCATTCTGTGCTAG | 1.99 |
| CTTGCTTTGTGCCTAGCCTTGTGCTAG | -0.52 |
| GACGGTCTCCTTCTCCTGTCGTGCTAG | 0.197 |
| TTAGGACTGCTACTGCATTAGTGCTAG | -0.0974 |
| GATGGTCTCGGTCTCGGGACGTGCTAG | 0.523 |
| TTAGATTTCAGTACCGATTAGTGCTAG | 2.15 |
| TTAGGACTGCTTATCCATTAGTGCTAG | -0.316 |
| GACTGACTGGGTCTCGGGACGTGCTAG | -0.459 |
| TTAGGTCACGGACTGGGTTAGTGCTAG | -0.58 |
| TTAGATTTCGGGTTTCGATTCGTGCTA | 8 |
| GACGGACTGGGGACTGGGTACGTGCTA | -0.643 |
| TTAGATTTCGGGTTTCGAGTAGTGCTA | 6.53 |
| ATAGGTTTCGGTTCCGGTTAGTGCTAG | 10.4 |
| GACGGTATCGGACTGGGGCCGTGCTAG | 0.698 |
| TTAGGTATCGGGACTGGGTTAGTGCTA | 1.63 |

Block 3
Target: Sal-like protein 4, full length isoform A (SALL4, Homo sapiens, UniProt Q9UJQ4, residues 1-1053)
Sequence of UniProt Q9UJQ4 (whole entry, looked up): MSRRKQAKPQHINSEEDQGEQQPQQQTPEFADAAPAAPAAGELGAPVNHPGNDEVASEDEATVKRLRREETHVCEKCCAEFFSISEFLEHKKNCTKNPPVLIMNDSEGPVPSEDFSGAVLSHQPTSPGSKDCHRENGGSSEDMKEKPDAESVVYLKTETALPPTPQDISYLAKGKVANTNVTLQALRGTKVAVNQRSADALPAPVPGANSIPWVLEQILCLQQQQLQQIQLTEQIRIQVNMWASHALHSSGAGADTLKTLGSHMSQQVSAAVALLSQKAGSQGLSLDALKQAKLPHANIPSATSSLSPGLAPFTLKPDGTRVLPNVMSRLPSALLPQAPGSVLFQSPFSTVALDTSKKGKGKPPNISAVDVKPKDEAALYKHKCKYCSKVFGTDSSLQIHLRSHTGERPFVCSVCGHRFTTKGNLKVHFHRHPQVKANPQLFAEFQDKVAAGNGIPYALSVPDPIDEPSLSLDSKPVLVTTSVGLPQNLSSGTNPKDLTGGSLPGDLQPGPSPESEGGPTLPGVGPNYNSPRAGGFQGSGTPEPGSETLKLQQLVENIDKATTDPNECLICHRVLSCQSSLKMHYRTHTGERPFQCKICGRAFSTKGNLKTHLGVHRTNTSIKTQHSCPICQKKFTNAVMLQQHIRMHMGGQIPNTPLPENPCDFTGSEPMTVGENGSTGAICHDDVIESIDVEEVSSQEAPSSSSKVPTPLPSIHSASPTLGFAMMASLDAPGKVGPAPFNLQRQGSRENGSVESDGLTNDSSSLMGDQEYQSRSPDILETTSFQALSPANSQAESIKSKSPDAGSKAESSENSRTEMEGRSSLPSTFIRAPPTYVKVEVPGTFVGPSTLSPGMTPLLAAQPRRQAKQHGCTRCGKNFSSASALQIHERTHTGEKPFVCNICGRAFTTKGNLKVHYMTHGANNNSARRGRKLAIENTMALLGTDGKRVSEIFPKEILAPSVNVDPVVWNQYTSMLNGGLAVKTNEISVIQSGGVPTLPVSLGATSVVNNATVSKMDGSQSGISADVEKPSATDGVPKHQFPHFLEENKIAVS
Technique: universal PBM
Molecule type: double-stranded DNA, one strand shown
Medium: in vitro
Concentration: 600 nM
Notes: 8-mer, flanks averaged, mean of replicates
Reading: higher = stronger binding
| Strand | E-score |
| --- | --- |
| AGGACTTG | -0.199 |
| ATAGTAGG | 0.0839 |
| AAGAATTA | 0.262 |
| ACGCCCAC | -0.198 |
| AATACATC | 0.26 |
| CTAAGATC | -0.0224 |
| CCGTCTAA | -0.124 |
| GATAATGC | 0.0918 |
| ACACTCCC | -0.151 |
| CCACGCGC | -0.279 |
| ATCGTGGC | 0.0351 |
| CATTAACC | 0.164 |
| GCAACCAC | -0.176 |
| CACATAGA | 0.0964 |
| CATGATAG | 0.212 |
| CCCACTGA | -0.164 |
| ACAGCCAC | -0.0934 |
| AACACGAC | -0.0446 |
| TGCGGAAA | 0.055 |

Block 4
Target: ABI1, truncated, D143A, DHFR fusion (Arabidopsis thaliana)
Technique: DHFR PCA, deep sequencing
Medium: yeast
Notes: methotrexate growth selection, single substitutions
With: (+)-ABA 2500 µM
Relative to: wild-type fitted maximum
Reading: higher = stronger binding
Parent: PYL1, truncated, DHFR fusion (Arabidopsis thaliana); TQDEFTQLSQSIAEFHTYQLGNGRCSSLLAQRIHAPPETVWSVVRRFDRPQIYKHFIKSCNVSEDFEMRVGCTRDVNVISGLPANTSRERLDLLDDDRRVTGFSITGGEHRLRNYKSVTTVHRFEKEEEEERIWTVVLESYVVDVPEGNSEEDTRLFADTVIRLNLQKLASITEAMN; partner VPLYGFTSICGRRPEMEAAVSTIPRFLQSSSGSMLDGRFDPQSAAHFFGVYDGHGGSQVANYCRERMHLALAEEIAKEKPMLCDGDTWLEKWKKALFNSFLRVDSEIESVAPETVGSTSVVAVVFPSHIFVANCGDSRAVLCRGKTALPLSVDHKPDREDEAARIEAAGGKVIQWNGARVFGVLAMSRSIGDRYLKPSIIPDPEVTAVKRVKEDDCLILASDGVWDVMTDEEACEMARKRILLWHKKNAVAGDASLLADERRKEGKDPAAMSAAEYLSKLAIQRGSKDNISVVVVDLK
| Variant | relative binding score |
| --- | --- |
| E139C | 98.4% |
| S80Q | 84.9% |
| E64N | 96.5% |
| K168P | -3.29% |
| E64K | 97.6% |
| V78H | 70.3% |
| G107S | 102% |
| E151I | 96.8% |
| E109N | 102% |
| Y18Q | 91.4% |
| L91K | 13.7% |
| V161C | 89.8% |
| R132E | 110% |
| H55I | 92.7% |
| P37I | 101% |
| Q2V | 94.9% |
